# Experimental data of several laboratories.
# Numbered parts are unrelated; each lists some results of a single study. Substitutions count along the parent as printed.

# Block 1
# Target: RNA binding protein fox-1 homolog 2, RRM domain, GST-SBP tag (RBFOX2, Homo sapiens, UniProt O43251-10, residues 100-194)
# Technique: RNA Bind-n-Seq
# Molecule type: RNA
# Medium: in vitro
# Concentration: 365 nM
# Notes: natural RNA segment, single round, ends assumed
# Relative to: no-protein control
# Reading: higher = stronger binding
# Shared flanks, not repeated: GGGAGUUCUACAGUCCGACGAUC … UGGAAUUCUCGGGUGCCAA
# Target sequence (chain): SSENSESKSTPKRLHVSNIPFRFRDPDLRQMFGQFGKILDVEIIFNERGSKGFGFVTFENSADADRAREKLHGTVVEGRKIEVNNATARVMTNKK
Sequence,RBNS enrichment (R)
CAGCCUGCCCAUGGCACCCCAAAAGCAAGAUCCUGGAGAUCACAUUUGAUCCUACCAAAACCACUGCUGCUGUUUCUGAGAAAAGAAAGCAUUUUAUUCACCUGCAAGAU,0.932
CUCUUCCAGCAUGGAGGGUACCAUGGCCCGUAGGAGCCUGGGGUUCCUAGCAAACGGGAGGAAACCAGCUCCUGUGUGCCUCUGACGACUGUUGUCUGUGCCAACCUAAG,0.67
ACCUGCACAUCACUGCACAGACCUGAUUUGUGUCCCAGUGGACUUGUCCAAUGGAUGAAGUUGAUUCAUAUUGCAUCAUAGUGUGUCAUAUUUAAGCUCACAUUAGAGUU,0.639
GGGAUGAAGGUCCAACAGCCUGUGCCUCUCCACUGCUGGCCCUGGAGCCGGCAGCAGUGAGGCAUUCAUUGUCUGUGUUGCGGUGUAUUCCCAGCUUCAGUGCUCUUUUC,0.262
AUCAUUCUUGGCAGGAAUCUGCAAAUGGAAACAUUGUGAGUAUCAGCAAUCUGGGAAGUGACAGGGUUAAUAACUCCUUCCCAGAAGCUGUAUCAUGAGAUUUUGAGGGG,0.314
UCUUGUGUCAUGUGUAGGCUGUAAUAUGUGUACAUUGUGUUUAAGAGAAAAAUGAAACCCACAUGCCGCCAUUUUCCUGAAUCAAAUUCUGCAGUGGAAUGGAGAGGAAA,0.254
ACAGUUGGACGUGGUGUUAGUUUUAGACAAACGGGUUUCAUUAUUAUUCCUCUUUGCCUUCUCAAUGUUAAUUUAUUGCAUGGUUUACUCCUUUUCUUUACAGCCGAAAU,1.61
CCCCUGACCACCCUACCUUUUUGCAUCAAACACUGGGAAUGCUUCCUCAGUCCCUGCUCCAAACUAUGAAGCUCACCCUUCAUUUUUCCUCCCUGCUAUUGUGGACCUAA,1.78
UGUUUUGUUUUUUUCCCUGCACCACAAGCUGUGUUUAUCACUUUACAGUUGCAUGUUCAACUUGUCAUAGCUGGAAUUACUGUAUAAAAAGAACUGAUUGUGACUUGUAG,14.2
AAGACCUGAAGUUCAACAGUGGAUUCCUUACCAAAUAGUUUUUAAAGUAUGCUCUAAGGAACAAUGUUUUAAUGAAAUCUUGGAUACAAAGUGGAAUAAAAGGUUUCUGA,0.447
CUUUUUCACUCCAUCCAGCUUAGAGUCCCCUGCUGGCUUGUCACUCGCCUGCUUUGUGCCAGGCUGGUCUGUGUCCCCCUGAGCCUCAUGGCCUACGGUGAUGCCUGUGG,1.24
GGCGGGGGCGCCCCGGUGAGCGCGGGGACGAUUUUCUAACCCCAGGGAGAACUCGCCAGAGACUGAGAGCAGAGACCACUUAUCCUCAUUGCUUACCCCGAGCCGGGGUU,0.387

# Block 2
# Target: RING finger protein unkempt homolog, zinc fingers 1-6, GST-SBP tag (UNK, Homo sapiens, UniProt Q9C0B0, residues 30-357)
# Technique: RNA Bind-n-Seq
# Molecule type: RNA
# Medium: in vitro
# Concentration: not given
# Notes: RNA with constant flanks, ends assumed
# Relative to: input RNA pool
# Reading: higher = stronger binding
# Shared flanks, not repeated: GGGAGUUCUACAGUCCGACGAUC … CAACAGAGGAUUGAGCAUCA
# Target sequence (chain): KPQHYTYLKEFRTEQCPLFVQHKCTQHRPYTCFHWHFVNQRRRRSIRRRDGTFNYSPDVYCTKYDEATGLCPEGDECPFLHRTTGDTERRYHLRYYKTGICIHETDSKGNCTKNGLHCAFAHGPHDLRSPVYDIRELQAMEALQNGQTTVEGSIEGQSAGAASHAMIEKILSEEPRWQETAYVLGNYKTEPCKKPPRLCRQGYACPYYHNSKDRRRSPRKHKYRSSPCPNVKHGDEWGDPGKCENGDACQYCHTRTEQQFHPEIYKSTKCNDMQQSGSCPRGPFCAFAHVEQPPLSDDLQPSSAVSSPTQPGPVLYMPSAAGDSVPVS
Sequence,bound/input enrichment
GUCCAAGCACAGUGUGACUGCUGUUUUUUAUACUGGCAUCGCGCUGUCUUCCCGAUUUAUUCCGAUGAUGUAUAUGAAAAUGCUGUCGAUGCAGCCAGAUUACAUUACAUGUUCAGUGCU,0.166 ratio
AGCAGCCAUCUUAUCAACCUUCUGAACCCCAAAGGAAAGCCAGCAAACCAGCUGCUUGCUCUCCGGACUUUUUGCAAUUGCUUUGUUAGUCAGGCAGGACAAAAGCUCAUGAUGUCCCAG,0.237 ratio
GAAGCACAGCGAUGGCAGGCAAGGCUGAUUUGGAGAGGAAGGUGAUGUUGGCAUUUCUCAACCCGGAAUGCACAGAGUACCACUCAAUGGUGAGCUUGCAAGAUUUGCACAAACUCAUGG,0.149 ratio
AAACGGCAGGAAGACCCUGACCACUGUCCAAGGGAUCGCUGAUGAUUACGAUAAAAAGAAACCCGUGAAGGCGUUUAAGAAGAAGUUUGCCUGCAAUGGUACUGUAAUUGAGCAUCCAGA,0.151 ratio
CGUCCCGUCCGCGUGGUGUGAAGCGGCGCUGGAGGCUUAGUCGUAUAGUCUUCCGUCACUCCGCUGACCAUGGGCAACUUUCUGGGAUCCAGCGAGCGACAUGGUAAAUGAGCUCCAGAA,0.0704 ratio
GAGUGAAGGACUGUAAUCAUAAUAUGCUCACUACUUGCUCUUGUUUUUGUUUUAAUAAACUACCGCCGUGUUUUAAAAAGUUAAAUGAAGAAUAAACGCAAAUAUAAAAGCUCUGAUUUU,0.154 ratio
AUGCUUUCAGUAGCAGGAAUGGCAUUGUUUAAAAAGCUGAUGGCAGGGUAAGCAUUUGGGUCCGUGUUUUAUUAACAUAUUUGUAAGUACUUGUUCAUUGUGGAAAUGUGUCCUUGACUA,0.27 ratio
GAAACUAAACAUCACAGCAAGCUCUAUCUCUGAGCUAUAAUUUGUUUUUAAUGCAAAGACACCCGUUUGAUAAUAUAUACUGUAAUCCUGAAACAUUUGUGUUACUUACCUUUGGAGGUA,0.111 ratio
UCCUAGAGCCCAGUAGUUUUGACUUGUGUGAUGGGGACACAGUACAGCCUGAAGCUUCUUUCCGUCUCAGCACGGAGGGGCAAUGCCACUGGGUAGGACUUCUACUUCUUGUUUUUCCUC,0.206 ratio
GAUCGAACCUGGUCUUUGUGGAAGAGACAGGAUGCGACUUCCUCGGAGUUUGAUCCAUUUUUCCGUCUCUUUGCAUUCACCAACAAAAUUACUUCUGUGCAUAGUAGAAUCAUUUGGUCU,0.809 ratio
AGGAGUGUACGGCUAGUCAGAGACAAAGACACAGAUAAAUUUAAAGGAUUCUGCUAUGCCGAAUUCGAUGAAGUGGAUUCCCUUAAGGAAGCCUUGACAUACGAUGGUGCACUGUUGGGC,0.249 ratio

# Block 3
# Target: Fragile X messenger ribonucleoprotein 1, C-terminal low-complexity region (Fmr1, Mus musculus, UniProt P35922)
# Technique: RNA Bind-n-Seq
# Molecule type: RNA
# Medium: in vitro
# Concentration: 200 nM
# Notes: whole 134-nt RNA, ends assumed
# Added: 150 mM LiCl
# Relative to: input library
# Reading: higher = stronger binding
# Each molecule: 7-deaza-guanosine replaces G
# Shared flanks, not repeated: GGGAGUUCUACAGUCCGACGAUC … UGGAAUUCUCGGGUGUCAAGG
Sequence,log2 enrichment
CCUCAAGUCCUGUGCUACACAUCGUAUGUACCGAAUCGGAAAAAGGAGGAGGAAAGUAUUAUGUUACGCCGUUCGGAUCUGCACUUCCAG,-0.488
CUCAAGUCCUGUGCUACACAUCGUAUGUACCGAAUCGGCCGGGCCGGGCCGGGAAAGUAUUAUGUUACGCCGUUCGGAUCUGCACUUCCA,-0.0574
GUCCUGUGCUACACAUCGUAUGUACCGAAUCAAACCCCCAAACCCCCCCAAACCCAAAAAAGUAUUAUGUUACGCCGUUCGGAUCUGCAC,0.854
CUCAAGUCCUGUGCUACACAUCGUAUGUACCGAAUCGGUUGGGUUGGGGUUGGAAAGUAUUAUGUUACGCCGUUCGGAUCUGCACUUCCA,-0.113
CACAGACAACACGCACCCCCACAGACACAGAGGGAAGGGGUUGGGAUGGGGACAGGGUGCACAGCAGGGCGGGGUAGGACCCCAGCCCCU,-0.347
CAAGUCCUGUGCUACACAUCGUAUGUACCGAAUCGGGAAAGGGAAAGGGAAAGGGGAAAGUAUUAUGUUACGCCGUUCGGAUCUGCACUU,-0.928
CAAGUCCUGUGCUACACAUCGUAUGUACCGAAUCGGGUUUGGGGUUUGGUUUGGGGAAAGUAUUAUGUUACGCCGUUCGGAUCUGCACUU,-1.62
GAUGAGACAGAUGCUUCAUCAGCAGUGAAAGUGAAAAGAGCAGUCCAGAAAACAUCCGAUUUAAUAGUGUUGGGUCUCCCAUGGAAAACA,-1.12
UCAAGUCCUGUGCUACACAUCGUAUGUACCGAAUCGGAGGAAAGGAAAAAAAGGAAAGUAUUAUGUUACGCCGUUCGGAUCUGCACUUCC,-0.867
UGGCCCUGGUGGCAUGCGGGGAGGAAGAGGUGGCCUCAUGGAUCGUGGUGGUCCCGGUGGAAUAUUCAGAGGUGGCCGUGGUGGAGACAG,0.179
CAAGUCCUGUGCUACACAUCGUAUGUACCGAAUCGGGGUGGGGAAAGGGGUGGGGAAAGUAUUAUGUUACGCCGUUCGGAUCUGCACUUC,-0.456

# Block 4
# Target: CCNF, cyclin fold, Cln2 fusion (human)
# Technique: yeast growth competition, sequencing
# Medium: yeast
# Notes: strong parent motif
# Relative to: not given
# Reading: higher = stronger binding
# Starting sequence: CDKN1B docking peptide (human); PSACRNLFGPVDH; partner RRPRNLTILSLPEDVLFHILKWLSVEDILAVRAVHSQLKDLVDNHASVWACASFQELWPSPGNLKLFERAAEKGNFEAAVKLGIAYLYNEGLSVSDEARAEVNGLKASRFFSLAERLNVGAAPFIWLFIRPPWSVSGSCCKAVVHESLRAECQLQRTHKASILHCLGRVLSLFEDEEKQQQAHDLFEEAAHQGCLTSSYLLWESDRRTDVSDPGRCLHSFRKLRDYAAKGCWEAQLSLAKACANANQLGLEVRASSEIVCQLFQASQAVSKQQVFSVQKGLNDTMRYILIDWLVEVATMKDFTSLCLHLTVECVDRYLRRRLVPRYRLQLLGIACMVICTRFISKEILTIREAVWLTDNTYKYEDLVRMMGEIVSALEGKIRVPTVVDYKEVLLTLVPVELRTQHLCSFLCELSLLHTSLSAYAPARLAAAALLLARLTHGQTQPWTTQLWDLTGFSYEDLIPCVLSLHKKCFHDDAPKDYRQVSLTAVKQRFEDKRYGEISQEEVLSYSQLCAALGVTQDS
Change,normalised enrichment score
D12P,8.12
H13T,6.32
G9R,2.35
H13W,7.98
V11C,6
R5T,0.226
C4M,4.33
L7N,-0.0319
S2E,5.1
P1H,7.86
D12T,6.95
C4H,2.55
C4G,1.86
G9T,4.18
G9D,4.43
G9V,2.23
F8P,0.747
N6T,4.35
L7P,-0.233
C4T,2.28
G9N,4.08
H13Y,7.08
R5S,0.342
P10I,6.3
F8D,-0.541
